Published values pooled from the literature.
Compare with care: the assays were run in different laboratories.
Cell line: NCI-H460

CCC1=C(CC)C2=[N+]3C1=Cc1c(CC)c(CC)c4[n]1[Ir-3]31([n+]3ccccc3)([n+]3ccccc3)[n]3c(c(CC)c(CC)c3=CC3=[N+]1C(=C4)C(CC)=C3CC)=C2.[Cl-]
phototoxicity index (baseline: IC50 dark over IC50 light): 23.1

COc1cc(CNC(=O)C[C@H](C)CCC=C(C)C)ccc1OCc1cn(-c2ccc([N+](=O)[O-])cc2)nn1
growth percent (SRB; 10 µM, 48 h): 78.2%

CCCC(C)NC(=O)C(Nc1ccccc1C(=O)c1ccccc1)c1cn(C)c2ccccc12 (stereo not drawn)
GI50 (cell growth or viability, MTT; 72 h): 12 µM

Cc1ccc(S(=O)(=O)Nc2ccc(O)c3ccccc23)c(C)c1
cell growth (5 µM, 4 days): no effect

CC(=O)OC[C@H]1O[C@@H](Sc2sc(C(=O)c3ccc(Br)cc3)c(N)c2-c2nc3ccccc3s2)[C@H](OC(C)=O)[C@@H](OC(C)=O)[C@@H]1OC(C)=O
growth (SRB; 10 µM, 48 h; baseline: untreated): 44.3%

CC(=O)O[C@@H]1CC[C@@]2(C)[C@@H](CC[C@]3(C)[C@@H]2C(=O)C=C2[C@@H]4[C@@H](C)[C@H](C)CC[C@]4(C)CC[C@]23C)[C@@]1(C)C(=O)NCCNC(=O)CC[P+](c1ccccc1)(c1ccccc1)c1ccccc1
IC50 (cell growth or viability, MTT; 48 h): 25.5 µM

CC/C=C\C/C=C\C/C=C\C/C=C\C/C=C\C/C=C\CCC(=O)Nc1ccn(C2OC(CO)C(O)C2(F)F)c(=O)n1 (stereo not drawn)
TGI (NCI60 screen): 11.8 µM

COc1cc(CNC(=O)C[C@H](C)CCC=C(C)C)ccc1OCc1cn(-c2cccc(Cl)c2)nn1
growth percent (SRB; 10 µM, 48 h): 88.7%

CC(=O)O[C@H]1C2=C(C(=O)C(O)=C(C(C)C)C2=O)[C@@]2(C)CCCC(C)(C)[C@@H]2[C@@H]1O
GI50 (cell growth or viability, MTT; 72 h): 2.7 µM

COc1cc(CNC(=O)C[C@H](C)CCC=C(C)C)ccc1OCc1cn(-c2ccc(Cl)c(Cl)c2)nn1
growth percent (SRB; 10 µM, 48 h): 45.5%

CC(=C(c1ccc(O)cc1)c1ccc(Cl)cc1)c1ccc(Cl)cc1
GI50 (cell growth or viability, SRB): 0.48 µM

COc1ccc2c(c1)/C(=N\Nc1nnc3n1N=C(c1ccccc1)CS3)C(=O)N2
inhibition (cell growth or viability, SRB; 10 µM): 65%

CCC(=C(c1ccc(Cl)cc1)c1ccc(OCCCN(C)C)cc1)c1ccc(OC)cc1
GI50 (cell growth or viability, SRB): 1.1 µM

COc1cc(CNC(=O)C[C@H](C)CCC=C(C)C)ccc1OCc1cn(-c2ccccc2F)nn1
growth percent (SRB; 10 µM, 48 h): 89%

CC(=O)OC[C@H]1O[C@@H](Sc2sc(C(=O)c3ccc(C)cc3)c(N)c2-c2nc3ccccc3s2)[C@H](OC(C)=O)[C@@H](OC(C)=O)[C@@H]1OC(C)=O
growth (SRB; 10 µM, 48 h; baseline: untreated): 43.7%

CC1=C(C2=C(C)C(=O)c3c(cc(O)c(O)c3Cc3ccccc3)C2=O)C(=O)c2cc(O)c(O)c(Cc3ccccc3)c2C1=O (racemic)
EC50 (cell growth or viability, ATP luminescence; 72 h): 0.17 µM

COc1cc(CNC(=O)C[C@H](C)CCC=C(C)C)ccc1OCc1cn(-c2ccc(C#N)cc2)nn1
growth percent (SRB; 10 µM, 48 h): 45.8%

CC(=O)O[C@@H]1CC[C@@]2(C)[C@@H](CC[C@]3(C)[C@@H]2C(=O)C=C2[C@@H]4[C@@H](C)[C@H](C)CC[C@]4(C)CC[C@]23C)[C@@]1(C)C(=O)NCCNC(=O)C1CCCCC1
IC50 (cell growth or viability, MTT; 48 h): 14.9 µM

Some of these lines once more:
COc1cc(CNC(=O)C[C@H](C)CCC=C(C)C)ccc1OCc1cn(-c2ccc([N+](=O)[O-])cc2)nn1
growth percent (SRB; 10 µM, 48 h): 78.2%
